Measured values of several laboratories.
Each line is one published result; not all experiments were run side by side. Square brackets hold non-standard residues; d marks the D form. Ends that are not written are not given here. No end group written: not given here.
GLP1R: GLP1R (Homo sapiens, UniProt P43220)
B1: erenumab; V domains shown; sequence looked up; VH QVQLVESGGGVVQPGRSLRLSCAASGFTFSSFGMHWVRQAPGKGLEWVAVISFDGSIKYSVDSVKGRFTISRDNSKNTLFLQMNSLRAEDTAVYYCARDRLNYYDSSGYYHYKYYGMAVWGQGTTVTVSS; VL QSVLTQPPSVSAAPGQKVTISCSGSSSNIGNNYVSWYQQLPGTAPKLLIYDNNKRPSGIPDRFSGSKSGTSTTLGITGLQTGDEADYYCGTWDSRLSAVVFGGGTKLTVL
B2: UGT1A9 (Homo sapiens, UniProt O60656); chain GKLLVVPMDGSHWFTMRSVVEKLILRGHEVVVVMPEVSWQLGRSLNCTVKTYSTSYTLEDLDREFKAFAHAQWKAQVRSIYSLLMGSYNDIFDLFFSNCRSLFKDKKLVEYLKESSFDAVFLDPFDNCGLIVAKYFSLPSVVFARGILCHYLEEGAQCPAPLSYVPRILLGFSDAMTFKERVRNHIMHLEEHLLCHRFFKNALEIASEILQTPVTEYDLYSHTSIWLLRTDFVLDYPKPVMPNMIFIGGINCHQGKPLPMEFEAYINASGEHGIVVFSLGSMVSEIPEKKAMAIADALGKIPQTVLWRYTGTRPSNLANNTILVKWLPQNDLLGHPMTRAFITHAGSHGVYESICNGVPMVMMPLFGDQMDNAKRMETKGAGVTLNVLEMTSEDLENALKAVINDKSYKENIMRLSSLHKDRPVEPLDLAVFWVEFVMRHKGAPHLRPAAHDLTWYQYHSLDVIGFLLAVVLTVAFITFKCCAYGYRKCLGKKGRVKKAHKSKTH
B3: CRABP2 (Homo sapiens, UniProt P29373); chain MPNFSGNWKIIRSENFEELLKVLGVNVMLRKIAVAAASKPAVEIKQEGDTFYIKTSTTVRTTEINFKVGEEFEEQTVDGRPCKSLVKWESENKMVCEQKLLKGEGPKTSWTRELTNDGELILTMTADDVVCTRVYVRE
B4: TIMP3 24-144 (Homo sapiens, UniProt P35625); sequence looked up; chain CTCSPSHPQDAFCNSDIVIRAKVVGKKLVKEGPFGTLVYTIKQMKMYRGFTKMPHVQYIHTEASESLCGLKLEVNKYQYLLTGRVYDGKMYTGLCNFVERWDQLTLSQRKGLNYRYHLGCN
B5: MICA extracellular domain 24-299 (Homo sapiens, UniProt Q29983); sequence looked up; chain EPHSLRYNLTVLSWDGSVQSGFLTEVHLDGQPFLRCDRQKCRAKPQGQWAEDVLGNKTWDRETRDLTGNGKDLRMTLAHIKDQKEGLHSLQEIRVCEIHEDNSTRSSQHFYYDGELFLSQNLETKEWTMPQSSRAQTLAMNVRNFLKEDAMKTKTHYHAMHADCLQELRRYLKSGVVLRRTVPPMVNVTRSEASEGNITVTCRASGFYPWNITLSWRQDGVSLSHDTQQWGDVLPDGNGTYQTWVATRICQGEEQRFTCYMEHSGNHSTHPVPSGK
UniProt P01031, sequence (whole entry, looked up): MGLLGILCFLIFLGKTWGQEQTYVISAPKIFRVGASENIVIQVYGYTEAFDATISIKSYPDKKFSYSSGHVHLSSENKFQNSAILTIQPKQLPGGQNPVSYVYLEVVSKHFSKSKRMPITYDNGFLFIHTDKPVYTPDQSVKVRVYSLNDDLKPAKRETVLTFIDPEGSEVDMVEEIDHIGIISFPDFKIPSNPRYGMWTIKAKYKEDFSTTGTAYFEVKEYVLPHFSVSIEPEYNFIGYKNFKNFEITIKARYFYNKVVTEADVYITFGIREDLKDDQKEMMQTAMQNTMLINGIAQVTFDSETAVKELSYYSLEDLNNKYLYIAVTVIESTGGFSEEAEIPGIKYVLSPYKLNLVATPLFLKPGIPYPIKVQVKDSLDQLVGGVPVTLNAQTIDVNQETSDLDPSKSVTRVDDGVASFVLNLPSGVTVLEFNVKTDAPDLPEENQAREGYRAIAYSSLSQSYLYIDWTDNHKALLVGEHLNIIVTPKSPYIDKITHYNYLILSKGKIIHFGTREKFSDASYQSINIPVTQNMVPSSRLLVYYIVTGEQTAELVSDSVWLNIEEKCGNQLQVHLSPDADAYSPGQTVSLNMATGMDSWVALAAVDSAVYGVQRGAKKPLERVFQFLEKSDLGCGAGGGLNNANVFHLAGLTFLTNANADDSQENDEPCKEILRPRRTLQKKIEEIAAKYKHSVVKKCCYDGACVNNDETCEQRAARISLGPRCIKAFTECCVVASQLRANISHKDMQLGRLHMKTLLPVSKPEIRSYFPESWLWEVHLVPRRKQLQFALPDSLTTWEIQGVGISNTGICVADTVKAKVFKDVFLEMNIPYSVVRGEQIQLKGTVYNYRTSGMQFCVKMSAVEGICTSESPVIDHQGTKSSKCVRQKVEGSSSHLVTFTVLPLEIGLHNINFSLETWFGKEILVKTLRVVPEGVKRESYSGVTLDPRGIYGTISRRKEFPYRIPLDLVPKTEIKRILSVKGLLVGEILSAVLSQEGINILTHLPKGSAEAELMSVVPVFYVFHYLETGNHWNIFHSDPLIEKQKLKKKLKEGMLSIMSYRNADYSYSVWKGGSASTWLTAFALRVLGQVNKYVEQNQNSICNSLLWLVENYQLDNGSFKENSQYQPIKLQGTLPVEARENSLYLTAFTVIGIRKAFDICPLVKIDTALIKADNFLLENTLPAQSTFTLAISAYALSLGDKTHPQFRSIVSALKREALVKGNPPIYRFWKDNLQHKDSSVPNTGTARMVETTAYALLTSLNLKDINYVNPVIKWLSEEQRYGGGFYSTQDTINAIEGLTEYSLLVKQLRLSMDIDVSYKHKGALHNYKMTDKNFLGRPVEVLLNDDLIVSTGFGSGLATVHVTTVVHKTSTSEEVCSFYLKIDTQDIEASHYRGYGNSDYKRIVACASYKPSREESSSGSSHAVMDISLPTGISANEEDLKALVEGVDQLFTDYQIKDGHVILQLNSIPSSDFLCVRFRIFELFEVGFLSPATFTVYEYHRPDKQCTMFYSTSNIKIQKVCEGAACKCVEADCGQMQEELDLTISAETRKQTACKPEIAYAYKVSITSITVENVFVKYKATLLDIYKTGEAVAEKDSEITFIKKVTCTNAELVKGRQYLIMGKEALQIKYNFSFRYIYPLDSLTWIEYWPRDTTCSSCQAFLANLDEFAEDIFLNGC
UniProt P0ACI0, sequence (whole entry, looked up): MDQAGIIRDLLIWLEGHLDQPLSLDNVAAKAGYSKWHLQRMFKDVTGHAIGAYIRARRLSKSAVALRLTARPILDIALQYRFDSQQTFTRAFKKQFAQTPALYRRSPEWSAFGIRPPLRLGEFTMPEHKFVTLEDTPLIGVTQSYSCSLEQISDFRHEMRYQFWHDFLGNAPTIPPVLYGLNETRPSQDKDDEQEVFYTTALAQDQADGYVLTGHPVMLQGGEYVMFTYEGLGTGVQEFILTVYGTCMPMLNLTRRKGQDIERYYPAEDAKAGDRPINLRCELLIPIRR
UniProt Q9UNA0, sequence (whole entry, looked up): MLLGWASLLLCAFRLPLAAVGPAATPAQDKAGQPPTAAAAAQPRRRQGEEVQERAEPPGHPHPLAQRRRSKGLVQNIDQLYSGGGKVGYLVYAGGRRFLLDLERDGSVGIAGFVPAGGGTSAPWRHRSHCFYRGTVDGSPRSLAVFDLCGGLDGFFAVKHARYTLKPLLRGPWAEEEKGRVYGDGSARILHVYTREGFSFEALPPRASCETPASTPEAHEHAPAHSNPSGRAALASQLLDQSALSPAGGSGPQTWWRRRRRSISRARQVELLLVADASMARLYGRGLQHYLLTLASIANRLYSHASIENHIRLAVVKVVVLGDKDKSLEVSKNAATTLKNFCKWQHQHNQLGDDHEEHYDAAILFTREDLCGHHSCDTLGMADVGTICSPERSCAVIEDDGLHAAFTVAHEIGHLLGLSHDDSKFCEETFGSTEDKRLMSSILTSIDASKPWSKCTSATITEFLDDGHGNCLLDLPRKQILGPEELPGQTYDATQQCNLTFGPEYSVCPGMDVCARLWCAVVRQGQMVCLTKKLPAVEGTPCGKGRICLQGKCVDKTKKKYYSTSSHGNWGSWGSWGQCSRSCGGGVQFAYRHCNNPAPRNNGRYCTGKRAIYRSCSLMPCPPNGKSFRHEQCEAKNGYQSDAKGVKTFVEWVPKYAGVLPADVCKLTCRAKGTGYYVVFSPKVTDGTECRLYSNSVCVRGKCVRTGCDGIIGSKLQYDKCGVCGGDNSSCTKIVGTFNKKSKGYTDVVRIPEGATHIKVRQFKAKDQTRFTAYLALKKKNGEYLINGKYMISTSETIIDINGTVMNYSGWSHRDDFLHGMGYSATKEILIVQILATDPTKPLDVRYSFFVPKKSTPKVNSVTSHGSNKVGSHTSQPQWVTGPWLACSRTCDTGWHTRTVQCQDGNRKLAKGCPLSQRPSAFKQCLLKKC
UniProt O05209, sequence (whole entry, looked up): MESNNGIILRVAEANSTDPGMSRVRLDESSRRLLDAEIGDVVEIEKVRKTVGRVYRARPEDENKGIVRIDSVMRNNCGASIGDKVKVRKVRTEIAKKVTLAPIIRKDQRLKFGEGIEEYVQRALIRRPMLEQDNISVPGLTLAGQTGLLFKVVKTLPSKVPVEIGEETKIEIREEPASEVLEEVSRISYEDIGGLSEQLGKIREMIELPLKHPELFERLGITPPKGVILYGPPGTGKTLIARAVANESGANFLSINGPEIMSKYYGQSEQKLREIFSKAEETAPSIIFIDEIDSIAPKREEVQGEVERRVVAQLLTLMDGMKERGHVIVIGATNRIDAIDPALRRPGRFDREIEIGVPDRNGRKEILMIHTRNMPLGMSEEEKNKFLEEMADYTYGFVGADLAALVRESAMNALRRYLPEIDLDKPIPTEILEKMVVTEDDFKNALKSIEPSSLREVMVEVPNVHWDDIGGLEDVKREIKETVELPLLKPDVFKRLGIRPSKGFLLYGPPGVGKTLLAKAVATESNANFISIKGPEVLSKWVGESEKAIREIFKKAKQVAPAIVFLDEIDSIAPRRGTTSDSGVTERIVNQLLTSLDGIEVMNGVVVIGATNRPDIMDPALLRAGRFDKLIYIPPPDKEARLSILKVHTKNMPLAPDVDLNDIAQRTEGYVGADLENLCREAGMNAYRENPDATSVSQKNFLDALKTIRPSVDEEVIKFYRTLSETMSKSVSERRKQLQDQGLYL
UniProt P09038, sequence (whole entry, looked up): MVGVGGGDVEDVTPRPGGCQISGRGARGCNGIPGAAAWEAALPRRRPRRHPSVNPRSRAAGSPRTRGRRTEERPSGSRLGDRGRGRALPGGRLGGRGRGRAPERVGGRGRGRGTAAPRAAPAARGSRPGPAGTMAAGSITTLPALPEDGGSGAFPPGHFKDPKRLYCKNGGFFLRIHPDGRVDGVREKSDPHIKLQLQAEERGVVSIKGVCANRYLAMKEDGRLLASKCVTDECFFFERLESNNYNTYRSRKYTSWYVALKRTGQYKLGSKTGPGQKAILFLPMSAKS
UniProt Q8H1F2, sequence (whole entry, looked up): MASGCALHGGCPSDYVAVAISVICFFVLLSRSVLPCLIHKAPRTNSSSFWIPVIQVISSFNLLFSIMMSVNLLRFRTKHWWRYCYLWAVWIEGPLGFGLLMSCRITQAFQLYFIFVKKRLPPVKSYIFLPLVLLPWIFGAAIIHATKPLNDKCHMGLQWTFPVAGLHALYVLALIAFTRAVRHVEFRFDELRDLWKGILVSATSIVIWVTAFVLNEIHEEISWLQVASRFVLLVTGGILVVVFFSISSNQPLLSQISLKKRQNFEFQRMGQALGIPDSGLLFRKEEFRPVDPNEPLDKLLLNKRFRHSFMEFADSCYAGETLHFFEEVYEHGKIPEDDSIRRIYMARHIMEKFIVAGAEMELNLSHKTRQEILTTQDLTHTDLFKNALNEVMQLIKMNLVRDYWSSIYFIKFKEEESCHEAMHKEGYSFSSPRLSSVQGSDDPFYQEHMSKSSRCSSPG
UniProt P10145, sequence (whole entry, looked up): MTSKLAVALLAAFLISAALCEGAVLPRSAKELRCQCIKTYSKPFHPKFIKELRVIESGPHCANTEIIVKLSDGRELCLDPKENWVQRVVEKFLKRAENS
UniProt Q9WU72, sequence (whole entry, looked up): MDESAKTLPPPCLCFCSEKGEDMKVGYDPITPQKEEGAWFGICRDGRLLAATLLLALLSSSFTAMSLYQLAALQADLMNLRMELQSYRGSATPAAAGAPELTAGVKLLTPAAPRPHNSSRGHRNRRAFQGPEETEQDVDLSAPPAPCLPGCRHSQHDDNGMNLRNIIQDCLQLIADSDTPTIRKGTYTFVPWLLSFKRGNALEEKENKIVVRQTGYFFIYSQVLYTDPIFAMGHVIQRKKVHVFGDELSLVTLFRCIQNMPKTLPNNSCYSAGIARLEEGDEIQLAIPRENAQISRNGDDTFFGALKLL
UniProt P39615, sequence (whole entry, looked up): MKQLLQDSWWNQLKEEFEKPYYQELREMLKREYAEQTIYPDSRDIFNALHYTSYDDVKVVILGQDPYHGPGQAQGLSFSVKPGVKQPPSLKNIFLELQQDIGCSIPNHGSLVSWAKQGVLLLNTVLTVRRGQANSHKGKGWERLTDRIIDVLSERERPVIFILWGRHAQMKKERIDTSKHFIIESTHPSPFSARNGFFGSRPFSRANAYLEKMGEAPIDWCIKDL

TNFRSF17/IgG1 Fc fusion extracellular (Homo sapiens)
B220+ B cell population (Tnfsf13b 127-309 (Mus musculus, UniProt Q9WU72); B cell population in spleen; reference: control Ig, higher = more B cells): 50%

rob (Escherichia coli, UniProt P0ACI0)
transcription activation (rpoD R599A (Escherichia coli, UniProt P00579); β-galactosidase reporter; with: fumC promoter; reference: wild-type σ70, higher = more activation): 59%

B1 (erenumab)
pIC50 (CALCRL/RAMP1 on cells (Homo sapiens); cAMP production, antagonist; antibody, HEK293S; no preincubation, with: αCGRP 3 nM): 7.61

MVQNDFVDSYDVTMLLQDDDGKQYYEYHKGLSLSDWEVLYGNTADEIIKLRLDKVL (p56 1-56 F36W (Bacillus phage phi29, UniProt Q38503))
inhibition of uracil excision (ung 1-225 (Bacillus subtilis, UniProt P39615); ssDNA-U16 cleavage; reference: wild-type p56, higher = greater decrease in inhibition): 3 fold

PTH fragment (Homo sapiens)
cAMP signaling EC50 (PTH1R (Homo sapiens, UniProt Q03431); cAMP luminescence; SGS-72): 0.095 nM

TPDYLMQLMNDKKLMSSLPNFSGAFNHLERLLDEEISRVRKDMYNDTLNGSTEK (Qki 14-67 C35S/I37A (Mus musculus, UniProt Q9QYS9))
melting temperature (itself; CD thermal melting; 50 µM): 67 °C

RGS1 (Arabidopsis thaliana, UniProt Q8H1F2)
GTP hydrolysis rate constant (GPA1 (Arabidopsis thaliana, UniProt P18064); activator, single turnover GTPase assay; nanodiscs; 250 nM): 0.475 min⁻¹

DIS3 (Saccharomyces cerevisiae, UniProt Q08162)
relative exoribonuclease activity (CSL4/RRP4/RRP40/RRP41/RRP42/RRP46/RRP43/RRP45/MTR3 Exo9 core (Saccharomyces cerevisiae); polyA RNA degradation; reference: free Rrp44, lower = less active): 42 fold

NRTN fragment (Homo sapiens)
EC50 (RET 29-635 (Homo sapiens, UniProt P07949); MAPK signaling, SRE luciferase reporter, agonist; TGW neuroblastoma): 2.1 ng/mL

B2 (UGT1A9)
Vmax (COc1ccc(-c2oc3ccc(OC)cc3c(=O)c2O)cc1; steady-state kinetics; pH 7.4, 37 °C): 0.0022 µmol/min/mg

CALM1 holo (Homo sapiens, UniProt P0DP23)
flavin reduction rate, first phase (Nos1 (Rattus norvegicus, UniProt P29476); optical stopped-flow; CaM pre-incubated, with: NADPH, holo CaM): 313 s⁻¹

ribosomes whole ribosome (Rattus norvegicus)
association response (CRIP3 precursor 22-286 (Zea mays, UniProt P28522); SPR; 60 nM): 40 RU

B3 (CRABP2)
decrease of product formation (CYP2C8 (Homo sapiens, UniProt P10632); 4-OH-RA formation, inhibitor; Supersomes; with: holo-CRABP-II 1 µM; reference: free atRA, higher = less product): 99%

CXCL8 (Homo sapiens, UniProt P10145)
maximal response (CXCR3 (Homo sapiens, UniProt P49682); label-free dynamic mass redistribution; HEK293T; very weak response; higher = stronger response): 10.2 DMR

liraglutide
EC50 (GLP1R; reporter gene, agonist, CRE luciferase reporter; HEK293): 0.004 nM

FGF2 (Homo sapiens, UniProt P09038)
cell proliferation (FGFR3 isoform IIIc (unknown, UniProt Q61851); cell proliferation, MTT; BaF3-FGFR3c; 20 nM, 48 h, with: completely desulfated heparin 4.9 µg/mL; reference: FGF 1 with heparin, higher = more proliferation): 14%

sodium channel protein (Rattus norvegicus)
half-life (H2-D1/B2m (Mus musculus); flow cytometry; RMA-S): < 1 h

NSFL1C (Homo sapiens, UniProt Q9UNZ2)
concentration of maximum inhibition (VCP (Homo sapiens, UniProt P55072); ATPase activity, inhibitor; biphasic): 3.1 nM

Tigit fragment (Mus musculus)
kon (Pvr/IgG1 Fc Fc fusion, extracellular domain (Mus musculus); SPR; avidity, bivalent analyte model): 4660 M⁻¹ s⁻¹

VAT (Thermoplasma acidophilum, UniProt O05209)
casein degradation (20S proteasome core particle (Thermoplasma acidophilum, UniProt P25156); BODIPY-casein degradation, activator; 100 nM CP, with: ATP; reference: TaCP alone, higher = more fluorescence): 2.5 fold

SGRGK(Ac)GGKGL (histone H4 residues 1-10; acetylated K5)
molecule per partner (ATAD2 bromodomain 981-1108, Cys1057-Cys1079 disulfide (Homo sapiens, UniProt Q6PL18); ITC; peptide; pH 7.0, 5 °C, NaCl 150 mM): 0.93

TP53 R172H (Mus musculus)
reduction of PLA signal (Creb1 (Mus musculus, UniProt Q01147-1); proximity ligation; PDAC; KRAS knockdown; reference: control siRNA, higher = greater loss of interaction): 64%

B4 (TIMP3 24-144)
Ki (ADAMTS5 262-930 (Homo sapiens, UniProt Q9UNA0); inhibitor, steady-state kinetics; 1 h, 37 °C, apparent, tight-binding fit): 0.14 nM

H[dS]QGTFTSDYSKYLDSRRAQ[dC]FVQWLMCTKRNRNNIA-NH2 (oxyntomodulin analog D21C/N28C, D-Ser2, D-Cys21, C-terminal amide; cysteine pairing not given here; D-Ser2, D-Cys21, C-terminal amide)
EC50 (GLP1R; reporter gene, agonist, CRE luciferase reporter; peptide, HEK293): > 2000 nM

C5a mature (Homo sapiens, UniProt P01031)
C. albicans survival (C5AR1 (Homo sapiens, UniProt P21730); antagonist, XTT assay; HMDMs; 24 h, with: PMX205 10 µM; reference: vehicle 50%, higher = more survival): 78%

B5
bond lifetime ratio (KLRK1 (Homo sapiens, UniProt P26718); micropipette adhesion frequency; reference: ULBP3 at zero force, higher = longer lifetime): 1.45 fold

Excerpt of the above:
liraglutide
EC50 (GLP1R; reporter gene, agonist, CRE luciferase reporter; HEK293): 0.004 nM

H[dS]QGTFTSDYSKYLDSRRAQ[dC]FVQWLMCTKRNRNNIA-NH2 (oxyntomodulin analog D21C/N28C, D-Ser2, D-Cys21, C-terminal amide; cysteine pairing not given here; D-Ser2, D-Cys21, C-terminal amide)
EC50 (GLP1R; reporter gene, agonist, CRE luciferase reporter; peptide, HEK293): > 2000 nM
